{"data": "Measured values of several laboratories", "note": "Each line is one published result; not all experiments were run side by side. Several values in a cell are separate wells, animals, samples, runs or records."}
{"Structure (SMILES)": "Cn1ncc(-c2nc(N[C@H]3CC[C@H](N)CC3)ncc2Cl)c1CC1CC1", "test": "phase I dose escalation", "test system": "human patients", "conditions": "dose not given, treatment-related adverse events", "endpoint": "related adverse event incidence", "value": "83.9%"}
{"Structure (SMILES)": "CC(C)(O)c1cc(Nc2cc(Oc3cn(C4CC4)nc3C3CCOCC3)ccn2)ccn1", "test": "Asthenia", "test system": "patients with advanced cancer, Japanese cohort", "conditions": "oral, dose not given, grade ≥3", "endpoint": "treatment-related adverse events", "value": "0%"}
{"Structure (SMILES)": "C[C@]1(O)C[C@@](N)(c2ccc(-c3nc4n(c3-c3ccccc3)COc3ccncc3-4)cc2)C1", "test system": "human, advanced or metastatic solid tumours", "conditions": "28 mg intermittent, phase I dose escalation", "endpoint": "patients with grade ≥3 TEAE", "value": "100%"}
{"Structure (SMILES)": "CCN1CCN(Cc2ccc(Nc3ncc(F)c(-c4cc(F)c5nc6n(c5c4)[C@H](C)CCC6)n3)nc2)CC1", "test system": "advanced solid tumour patients", "conditions": "dose not given, Phase Ia monotherapy", "endpoint": "Hypophosphatemia incidence, any grade", "value": "25%"}
{"Structure (SMILES)": "O=C(Nc1ccccc1)C1CCN(C(=O)Oc2cccnc2)CC1", "test system": "healthy women", "conditions": "oral, 60 mg, 7 days", "endpoint": "adverse event Palpitations", "value": "0%"}
{"Structure (SMILES)": "N[C@@H]1c2ccccc2OC12CCN(c1cnc3c(N4CCCc5ncccc54)n[nH]c3n1)CC2", "test system": "advanced metastatic solid tumour patients", "conditions": "oral, 20 mg once daily, cycle 1, 21 days", "endpoint": "dose-limiting toxicity", "value": "0%"}
{"Structure (SMILES)": "CCCCCOc1ccc(-c2ccc(-c3ccc(C(=O)N[C@H]4C[C@@H](O)[C@@H](OCC[N+](C)(C)C)NC(=O)[C@@H]5[C@@H](O)[C@@H](C)CN5C(=O)[C@H]([C@@H](C)O)NC(=O)[C@H]([C@H](O)[C@@H](O)c5ccc(O)cc5)NC(=O)[C@@H]5C[C@@H](O)CN5C(=O)[C@H]([C@@H](C)O)NC4=O)cc3)cc2)cc1", "test system": "adult patients not in ICU, plasma", "conditions": "intravenous, 400 mg loading dose, after first dose, median", "endpoint": "Cmin", "value": "2310 ng/mL"}
{"Structure (SMILES)": "CO[C@H]1C[C@@H]2CC[C@@H](C)[C@@](O)(O2)C(=O)C(=O)N2CCCC[C@H]2C(=O)O[C@H]([C@H](C)C[C@@H]2CC[C@@H](OC(=O)NCCOCCOCCOCCOCCOCCOCCOCCOCCC(=O)N3CCc4cc(Cn5nc(-c6ccc7oc(N)nc7c6)c6c(N)ncnc65)ccc4C3)[C@H](OC)C2)C[C@@H](O)[C@H](C)/C=C(\\C)[C@@H](O)[C@@H](OC)C(=O)[C@H](C)C[C@H](C)/C=C/C=C/C=C/1C", "test system": "patients with advanced solid tumours", "conditions": "intravenous, 8 mg weekly, grade 3 or higher", "endpoint": "decreased appetite incidence", "value": "0%"}
{"Structure (SMILES)": "CCN(CCO)CCCC(C)Nc1ccnc2cc(Cl)ccc12 (centres unmarked)", "test system": "newly diagnosed glioblastoma patients", "conditions": "oral, 400 mg/dose, grade 1, added: radiotherapy plus temozolomide", "endpoint": "AST increased patients", "value": "29%"}
{"Structure (SMILES)": "C[C@]1(CO)Cc2ncn(-c3ccc(C#N)c(Cl)c3)c2C(=O)O1", "test system": "human, plasma", "conditions": "40 mg, first dose fasted", "endpoint": "Cmax", "value": "1420 nM"}
{"Structure (SMILES)": "COc1cc2c(Oc3ccc4[nH]c(C)cc4c3F)ccnc2cc1OCC1(N)CC1", "test system": "paediatric recurrent refractory sarcoma", "conditions": "concentration not given, whole group", "endpoint": "grade 1 or 2 Vomiting", "value": "26.5%"}
{"Structure (SMILES)": "CC(C)[C@@H]1NC(=O)CNC(=O)[C@H](CC(N)=O)NC(=O)[C@H](CCCNC(=N)N)NC(=O)[C@H](Cc2ccc(O)cc2)NC(=O)[C@H](C(C)C)NC(=O)[C@@H](NC(=O)[C@@H](NC(=O)[C@H](CC(N)=O)NC(=O)[C@H](Cc2c[nH]c3ccccc23)NC(=O)[C@H](C)NC(=O)[C@H](Cc2ccccc2)NC(=O)CN)C(C)C)CSSC[C@@H](C(=O)N[C@@H](Cc2cnc[nH]2)C(=O)N[C@@H](CCCNC(=N)N)C(=O)N[C@@H](CCCNC(=N)N)C(=O)N[C@@H](C)C(=O)N[C@@H](CC(N)=O)C(N)=O)NC(=O)[C@H](C(C)C)NC(=O)[C@H](CCCNC(=N)N)NC1=O", "test": "HPLC", "test system": "mouse liver homogenate", "conditions": "2560 µM, 6.00 h, 50 mg/mL tissue", "endpoint": "remaining peptide", "value": "2.64% and 3.03% and 4.77%"}
{"Structure (SMILES)": "Fc1ccc([C@@H]2CCNC[C@H]2COc2ccc3c(c2)OCO3)cc1", "test": "refers to: Constipation", "test system": "healthy volunteers", "conditions": "oral, dose not given, given -1 h relative to LSD, added: LSD", "how to read": "direction not given", "endpoint": "List of Complaints score", "value": "0 score"}
{"Structure (SMILES)": "C[C@@H](NC(=O)N1C(=O)[C@H](Cc2ccnc(N)c2)[C@H]1C(=O)O)C1CCCCC1", "test system": "healthy adult Chinese volunteers", "conditions": "continuous intravenous infusion, 0.6 mg/kg/h, 5-day infusion, CTCAE 5.0 grading", "endpoint": "incidence of albuminuria", "value": "0%"}
{"note": "Repeated from above:"}
{"Structure (SMILES)": "CCCCCOc1ccc(-c2ccc(-c3ccc(C(=O)N[C@H]4C[C@@H](O)[C@@H](OCC[N+](C)(C)C)NC(=O)[C@@H]5[C@@H](O)[C@@H](C)CN5C(=O)[C@H]([C@@H](C)O)NC(=O)[C@H]([C@H](O)[C@@H](O)c5ccc(O)cc5)NC(=O)[C@@H]5C[C@@H](O)CN5C(=O)[C@H]([C@@H](C)O)NC4=O)cc3)cc2)cc1", "test system": "adult patients not in ICU, plasma", "conditions": "intravenous, 400 mg loading dose, after first dose, median", "endpoint": "Cmin", "value": "2310 ng/mL"}
